Results gathered from unrelated publications.
Compare with care: the assays were run in different laboratories. Numbers after ± are the reported error.
Target: Cytochrome P450 2D6 (CYP2D6, Homo sapiens, UniProt P10635)
UniProt P10635, sequence (whole entry, looked up): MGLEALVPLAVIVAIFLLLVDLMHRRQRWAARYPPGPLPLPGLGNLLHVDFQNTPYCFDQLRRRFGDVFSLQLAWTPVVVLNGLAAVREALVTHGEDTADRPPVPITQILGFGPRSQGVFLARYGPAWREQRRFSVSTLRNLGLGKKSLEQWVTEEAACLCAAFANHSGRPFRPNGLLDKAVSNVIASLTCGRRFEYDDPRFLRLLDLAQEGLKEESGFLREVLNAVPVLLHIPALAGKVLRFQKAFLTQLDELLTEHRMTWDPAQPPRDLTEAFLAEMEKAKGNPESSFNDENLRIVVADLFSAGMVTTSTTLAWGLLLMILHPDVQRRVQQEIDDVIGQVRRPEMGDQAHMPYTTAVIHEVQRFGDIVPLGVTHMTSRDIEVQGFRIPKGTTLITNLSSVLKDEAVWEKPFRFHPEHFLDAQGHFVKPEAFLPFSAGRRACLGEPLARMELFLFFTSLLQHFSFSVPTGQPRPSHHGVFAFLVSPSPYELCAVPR

For `C(#Cc1cncc(OC[C@@H]2CCN2)c1)c1ccccc1`, the IC50 was 143 µM (enzyme activity, inhibitor, fluorescence).
`CCn1ccc(-c2cc(-c3cnn(C)c3)cc([C@@H](C)NC(=O)c3cc(OCCN(C)C)ccc3C)c2)n1` has an IC50 of > 50 µM (enzyme activity, inhibitor; pooled human liver microsomes; 10 (unit not given)).
With `Cc1ccc2nc(C)c(C(=O)NCc3cccs3)n2c1` the IC50 was 3.8 µM (inhibitor).
The IC50 of `CCCCCc1cc(O)c2c(c1)OC(C)(C)C1CCC(C(=O)OC3OC(C(=O)O)C(O)C(O)C3O)=CC21` (stereo not shown) is reported as 8.1 ± 1.1 µM (inhibitor; 30 min preincubation without NADPH).
For `COc1ccc2nc(C)cc(OCC(=O)Nc3ccccc3OC)c2c1`, the IC50 was 32 µM (inhibitor).
`COc1ccc(F)cc1S(=O)(=O)Nc1cnc2c(c1)C(=O)NCCO2` has an IC50 of > 100 µM (enzyme activity, inhibitor; human, liver microsomes; with preincubation).
`Cc1ccc(N2CC3CCC(C2)N3C)cc1C(=O)N[C@H](C)c1cc(-c2cnn(C)c2)nc2ccccc12` gave an IC50 of > 50 µM (enzyme activity).
With `C[C@H](NCc1ccc(-c2ccc(C(F)(F)F)cc2)cc1)C(N)=O` the IC50 was > 10 µM (enzyme activity, inhibitor, luciferase; pH 7.4).
For `CCc1ccc([C@@H]2C[C@H](C(F)(F)F)n3ncc(C(=O)NCc4ccc(OC)cc4)c3N2)cc1`, the IC50 was 7.6 µM (inhibitor).
For `c1ccc(C2(CCNC3CCC4(SCCS4)c4ccccc43)CCOC3(CCCC3)C2)nc1` (stereo not shown), the IC50 was 3.24 µM (enzyme activity, inhibitor; human, liver microsomes).

For quick reference, copied from above:
`COc1ccc(F)cc1S(=O)(=O)Nc1cnc2c(c1)C(=O)NCCO2` has an IC50 of > 100 µM (enzyme activity, inhibitor; human, liver microsomes; with preincubation).
